Experimental data pooled from the literature.
Compare with care: the assays were run in different laboratories. “And” joins repeats or separate records; there may be more than shown. ± gives the spread as reported.

Substance | cell line | test | setting | IC50
COc1cccc2c1C(=O)c1c(O)c3c(c(O)c1C2=O)C[C@@](O)(C(=O)CO)C[C@@H]3O[C@H]1C[C@H](N)[C@H](O)[C@H](C)O1 | MRC5 | cell growth or viability, MTT | 48 h | 0.42 µM
C=CC(C)(C)c1cc(C(=O)c2c(-c3cc(-c4cc5cc(C(C)(C)C=C)c(O)cc5oc4=O)c(O)cc3O)oc3cc(O)ccc23)c(O)cc1O | HT-29 | cell growth or viability |  | 1.6 µM
O=C(CCCCCCC(=O)N[c-]1cccc1)NO.[Fe+2].c1cc[cH-]c1 | MCF7 | cell growth or viability |  | 2.4 µM and 2.44 µM
O=C(/C=C/c1ccc(Cn2cc(Cn3cnc4ccc(I)cc4c3=O)nn2)cc1)NO | MRC5 | cell growth or viability, MTT | 48 h | 73 µM
CC1(C)c2cc3cc(-c4ccc(O)cc4O)c(=O)oc3cc2OC1CO (centres unmarked) | HT-29 | cell growth or viability |  | > 10 µM
CC1=C(CO)C(=O)O[C@@H]([C@@H](C)[C@H]2CC[C@H]3[C@@H]4C[C@H]5O[C@]56[C@@H](O)C=CC(=O)[C@]6(CO)[C@H]4CC[C@]23C)C1 | SK-MEL-28 melanoma | cell viability, MTS |  | 5.6 ± 0.6 µM
C=CC(C)(C)c1cc(-c2oc3cc(O)ccc3c2Cc2cc(-c3cc4cc(C(C)(C)C=C)c(O)cc4oc3=O)c(O)cc2O)c(O)cc1O | HT-29 | cell growth or viability |  | 4.5 µM
curcumin | NCM460 | cytotoxicity, MTT |  | 431 µM
CCN(CC)Cc1cc(Nc2ccnc3cc(Cl)ccc23)ccc1O | HepG2 overexpressing CYP2C8 | cell viability, MTT | 48 h | 11.6 µM
C=C1C(=O)O[C@@H]2C/C(C)=C\CC(=O)[C@](C)(OC(C)=O)C[C@H](OC(=O)/C(C)=C\C)[C@@H]12 | HT-29 | cytotoxicity |  | 4 µM
C=CC(C)(C)c1cc2cc(-c3ccc(O)cc3O)c(=O)oc2cc1O | HT-29 | cell growth or viability |  | > 10 µM
O=C(/C=C/c1ccc(Cn2cc(Cn3cnc4ccc(Cl)cc4c3=O)nn2)cc1)NO | MRC5 | cell growth or viability, MTT | 48 h | 20.7 µM
dolastatin 16 | HT-29 | cell viability, MTT | 48 h | 78 µM
C=C(C)C(=O)O[C@H]1C[C@@]2(C)OC(=CC2=O)/C(CO)=C\[C@H]2OC(=O)C(=C)[C@H]12 | HT-29 | cytotoxicity |  | 0.56 µM
O=C(NO)c1ccc(Cn2cc(Cn3cnc4ccc(Br)cc4c3=O)nn2)cc1 | MRC5 | cell growth or viability, MTT | 48 h | 44.9 µM
C=C1C(=O)O[C@@H]2C[C@@H](C)/C=C\C(=O)[C@](C)(OC(C)=O)C[C@H](OC(=O)/C(C)=C\C)[C@@H]12 | HT-29 | cytotoxicity |  | 1.2 µM
O=C(/C=C/c1ccc(Cn2cc(Cn3cnc4ccc(F)cc4c3=O)nn2)cc1)NO | MRC5 | cell growth or viability, MTT | 48 h | 12.6 µM

Repeated from above:
Substance | cell line | test | setting | IC50
dolastatin 16 | HT-29 | cell viability, MTT | 48 h | 78 µM
